Published values collected from several papers.
Parts stem from different laboratories: compare values within a part only.
UniProt P42336, sequence (whole entry, unmodified, looked up): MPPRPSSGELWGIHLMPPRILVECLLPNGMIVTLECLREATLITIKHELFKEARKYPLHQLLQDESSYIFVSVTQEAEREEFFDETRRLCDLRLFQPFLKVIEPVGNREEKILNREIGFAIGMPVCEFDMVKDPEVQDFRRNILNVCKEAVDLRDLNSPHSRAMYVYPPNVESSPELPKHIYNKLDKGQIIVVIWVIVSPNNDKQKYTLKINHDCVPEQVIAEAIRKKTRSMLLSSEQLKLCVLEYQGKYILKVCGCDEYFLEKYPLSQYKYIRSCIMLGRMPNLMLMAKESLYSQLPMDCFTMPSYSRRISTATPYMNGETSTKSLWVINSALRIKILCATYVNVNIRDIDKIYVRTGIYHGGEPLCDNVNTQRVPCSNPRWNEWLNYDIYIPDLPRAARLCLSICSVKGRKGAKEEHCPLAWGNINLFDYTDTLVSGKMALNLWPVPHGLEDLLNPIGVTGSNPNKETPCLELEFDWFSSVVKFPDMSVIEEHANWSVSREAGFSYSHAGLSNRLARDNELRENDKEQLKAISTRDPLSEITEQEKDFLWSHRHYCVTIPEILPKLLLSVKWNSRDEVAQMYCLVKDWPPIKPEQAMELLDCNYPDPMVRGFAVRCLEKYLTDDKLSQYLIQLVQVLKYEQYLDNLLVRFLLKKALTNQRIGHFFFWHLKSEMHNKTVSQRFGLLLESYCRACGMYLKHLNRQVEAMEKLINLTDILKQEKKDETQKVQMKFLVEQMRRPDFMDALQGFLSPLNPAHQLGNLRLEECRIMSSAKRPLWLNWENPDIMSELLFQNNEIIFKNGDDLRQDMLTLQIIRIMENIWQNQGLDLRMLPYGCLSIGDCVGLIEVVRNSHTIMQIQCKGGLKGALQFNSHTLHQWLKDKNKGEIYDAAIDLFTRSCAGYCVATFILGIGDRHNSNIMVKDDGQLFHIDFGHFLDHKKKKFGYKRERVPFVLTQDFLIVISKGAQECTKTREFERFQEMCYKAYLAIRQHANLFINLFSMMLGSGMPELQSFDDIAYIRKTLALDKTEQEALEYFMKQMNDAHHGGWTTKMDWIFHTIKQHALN
UniProt P42679, sequence (whole entry, looked up): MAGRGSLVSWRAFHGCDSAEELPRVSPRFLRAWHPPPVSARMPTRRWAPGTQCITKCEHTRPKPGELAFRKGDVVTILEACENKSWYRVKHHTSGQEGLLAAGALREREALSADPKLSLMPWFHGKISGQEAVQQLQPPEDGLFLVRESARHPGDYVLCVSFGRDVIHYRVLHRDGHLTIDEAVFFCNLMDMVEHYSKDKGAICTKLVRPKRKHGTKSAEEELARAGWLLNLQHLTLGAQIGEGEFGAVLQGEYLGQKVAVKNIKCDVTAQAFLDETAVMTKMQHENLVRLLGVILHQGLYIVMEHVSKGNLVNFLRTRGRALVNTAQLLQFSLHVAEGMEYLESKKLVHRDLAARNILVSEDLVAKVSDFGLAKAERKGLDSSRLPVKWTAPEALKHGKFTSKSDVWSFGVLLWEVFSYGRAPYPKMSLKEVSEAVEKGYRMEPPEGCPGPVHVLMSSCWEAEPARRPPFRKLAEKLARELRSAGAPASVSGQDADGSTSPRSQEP
UniProt Q9HCP0, sequence (whole entry, looked up): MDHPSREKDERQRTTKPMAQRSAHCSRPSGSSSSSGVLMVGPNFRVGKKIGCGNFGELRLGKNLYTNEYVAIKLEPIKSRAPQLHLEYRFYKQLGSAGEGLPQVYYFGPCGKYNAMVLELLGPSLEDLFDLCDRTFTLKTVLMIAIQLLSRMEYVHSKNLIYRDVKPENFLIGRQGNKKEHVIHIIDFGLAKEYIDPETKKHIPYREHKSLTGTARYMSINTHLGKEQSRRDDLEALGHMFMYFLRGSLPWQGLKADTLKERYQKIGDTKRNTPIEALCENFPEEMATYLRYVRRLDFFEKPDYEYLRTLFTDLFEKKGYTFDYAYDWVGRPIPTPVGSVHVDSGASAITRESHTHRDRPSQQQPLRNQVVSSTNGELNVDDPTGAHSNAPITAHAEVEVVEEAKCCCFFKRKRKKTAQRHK
UniProt Q9P286, sequence (whole entry, looked up): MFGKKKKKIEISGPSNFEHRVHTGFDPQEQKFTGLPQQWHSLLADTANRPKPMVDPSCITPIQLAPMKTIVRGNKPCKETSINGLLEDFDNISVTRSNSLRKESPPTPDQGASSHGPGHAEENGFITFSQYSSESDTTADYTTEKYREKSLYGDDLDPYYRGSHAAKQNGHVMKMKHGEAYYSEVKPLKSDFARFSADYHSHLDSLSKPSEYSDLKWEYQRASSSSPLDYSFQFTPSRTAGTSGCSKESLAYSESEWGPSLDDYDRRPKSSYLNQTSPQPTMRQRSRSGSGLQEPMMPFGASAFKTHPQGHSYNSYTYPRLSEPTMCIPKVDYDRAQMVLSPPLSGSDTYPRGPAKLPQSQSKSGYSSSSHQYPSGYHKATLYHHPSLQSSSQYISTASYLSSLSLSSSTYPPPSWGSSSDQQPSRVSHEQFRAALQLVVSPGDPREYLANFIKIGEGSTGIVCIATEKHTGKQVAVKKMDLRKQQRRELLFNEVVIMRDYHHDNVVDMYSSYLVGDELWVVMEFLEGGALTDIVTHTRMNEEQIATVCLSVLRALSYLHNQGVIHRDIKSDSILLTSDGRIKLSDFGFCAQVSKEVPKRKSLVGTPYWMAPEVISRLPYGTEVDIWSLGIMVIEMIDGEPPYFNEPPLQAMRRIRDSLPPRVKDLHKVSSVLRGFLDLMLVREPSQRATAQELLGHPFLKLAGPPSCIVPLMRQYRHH
UniProt P36894, sequence (whole entry, looked up): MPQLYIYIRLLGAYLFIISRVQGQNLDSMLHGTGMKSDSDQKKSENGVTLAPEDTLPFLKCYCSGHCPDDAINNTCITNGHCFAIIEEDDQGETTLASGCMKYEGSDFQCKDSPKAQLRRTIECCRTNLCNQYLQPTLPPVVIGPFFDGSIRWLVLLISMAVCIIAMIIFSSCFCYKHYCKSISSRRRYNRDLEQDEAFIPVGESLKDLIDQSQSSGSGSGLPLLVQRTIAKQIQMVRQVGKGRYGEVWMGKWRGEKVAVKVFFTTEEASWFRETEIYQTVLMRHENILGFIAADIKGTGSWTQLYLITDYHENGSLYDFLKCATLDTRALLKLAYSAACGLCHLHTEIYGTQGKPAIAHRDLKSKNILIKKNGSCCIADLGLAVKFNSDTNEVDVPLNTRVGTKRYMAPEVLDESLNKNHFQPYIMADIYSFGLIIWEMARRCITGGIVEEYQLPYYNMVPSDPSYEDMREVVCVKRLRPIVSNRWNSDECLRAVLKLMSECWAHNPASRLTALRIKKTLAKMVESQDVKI
UniProt P68400, sequence (whole entry, looked up): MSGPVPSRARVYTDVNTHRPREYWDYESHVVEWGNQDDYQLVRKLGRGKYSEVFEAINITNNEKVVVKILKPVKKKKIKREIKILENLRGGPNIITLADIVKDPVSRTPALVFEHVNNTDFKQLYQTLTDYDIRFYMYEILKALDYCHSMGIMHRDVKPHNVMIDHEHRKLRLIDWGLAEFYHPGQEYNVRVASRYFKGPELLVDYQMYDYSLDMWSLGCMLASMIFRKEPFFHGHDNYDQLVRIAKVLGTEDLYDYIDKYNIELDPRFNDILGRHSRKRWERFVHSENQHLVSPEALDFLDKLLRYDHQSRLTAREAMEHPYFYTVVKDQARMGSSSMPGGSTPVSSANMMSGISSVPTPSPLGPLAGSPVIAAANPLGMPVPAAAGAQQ

Set 1
SMILES: COc1cc(-c2cn(C3CCc4ccccc4N(CC(F)(F)F)C3=O)nn2)ccc1-n1ccc(C)n1 (stereo not drawn)
Method: competition with immobilised ligand
Tested at: 1 µM
target | assay | remaining binding [%]
MAP4K1 (Homo sapiens, UniProt Q92918) | cell-free assay | 100
Tyrosine-protein kinase JAK1, JH2 (JAK1, Homo sapiens, UniProt P23458) | cell-free assay | 87
PAK5 (Homo sapiens, UniProt Q9P286) | cell-free assay | 96
PIK3CA (Homo sapiens, UniProt P42336, E545K) | cell-free assay | 84
CSNK1G1 (Homo sapiens, UniProt Q9HCP0) | cell-free assay | 77
IGF1R (Homo sapiens, UniProt P08069) | cell-free assay | 100
LATS1 (Homo sapiens, UniProt O95835) | cell-free assay | 71
PRPF4B (Homo sapiens, UniProt Q13523) | cell-free assay | 93
PIK3CA (Homo sapiens, UniProt P42336, H1047L) | cell-free assay | 97
STK24 (Homo sapiens, UniProt Q9Y6E0) | cell-free assay | 97
CSNK1G2 (Homo sapiens, UniProt P78368) | cell-free assay | 100
BMPR1A (Homo sapiens, UniProt P36894) | binding | 89
CDKL3 (Homo sapiens, UniProt Q8IVW4) | binding | 88
MATK (Homo sapiens, UniProt P42679) | cell-free assay | 80
CSNK2A1 (Homo sapiens, UniProt P68400) | cell-free assay | 81
MAK (Homo sapiens, UniProt P20794) | binding | 99

Set 2
Target: Histone acetyltransferase KAT6A, winged helix 1, GST fusion (KAT6A, Homo sapiens, UniProt Q92794, residues 1-85)
Method: protein binding microarray
Molecule type: double-stranded DNA, one strand shown
Sample: in vitro
Tested at: not given
Notes: 8-mer, flanks averaged, mean of 2 arrays, mostly near background
Relative to: not given
Direction: higher = stronger binding
Target sequence (chain): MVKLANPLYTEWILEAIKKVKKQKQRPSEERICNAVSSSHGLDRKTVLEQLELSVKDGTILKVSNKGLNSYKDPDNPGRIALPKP
Oligonucleotide | E-score
CAGCTCTA | -0.105
ACGGCAGC | 0.335
GAGCTCAA | 0.0388
AACGTCGG | 0.0984
CTCCTAGC | -0.0127
ACCAAGGG | -0.168
CGCCCAAG | 0.141
ACTTATTC | -0.0896

Set 3
Target: Ephrin type-A receptor 1 (EPHA1, Homo sapiens, UniProt P21709)
UniProt P21709, sequence (whole entry, looked up): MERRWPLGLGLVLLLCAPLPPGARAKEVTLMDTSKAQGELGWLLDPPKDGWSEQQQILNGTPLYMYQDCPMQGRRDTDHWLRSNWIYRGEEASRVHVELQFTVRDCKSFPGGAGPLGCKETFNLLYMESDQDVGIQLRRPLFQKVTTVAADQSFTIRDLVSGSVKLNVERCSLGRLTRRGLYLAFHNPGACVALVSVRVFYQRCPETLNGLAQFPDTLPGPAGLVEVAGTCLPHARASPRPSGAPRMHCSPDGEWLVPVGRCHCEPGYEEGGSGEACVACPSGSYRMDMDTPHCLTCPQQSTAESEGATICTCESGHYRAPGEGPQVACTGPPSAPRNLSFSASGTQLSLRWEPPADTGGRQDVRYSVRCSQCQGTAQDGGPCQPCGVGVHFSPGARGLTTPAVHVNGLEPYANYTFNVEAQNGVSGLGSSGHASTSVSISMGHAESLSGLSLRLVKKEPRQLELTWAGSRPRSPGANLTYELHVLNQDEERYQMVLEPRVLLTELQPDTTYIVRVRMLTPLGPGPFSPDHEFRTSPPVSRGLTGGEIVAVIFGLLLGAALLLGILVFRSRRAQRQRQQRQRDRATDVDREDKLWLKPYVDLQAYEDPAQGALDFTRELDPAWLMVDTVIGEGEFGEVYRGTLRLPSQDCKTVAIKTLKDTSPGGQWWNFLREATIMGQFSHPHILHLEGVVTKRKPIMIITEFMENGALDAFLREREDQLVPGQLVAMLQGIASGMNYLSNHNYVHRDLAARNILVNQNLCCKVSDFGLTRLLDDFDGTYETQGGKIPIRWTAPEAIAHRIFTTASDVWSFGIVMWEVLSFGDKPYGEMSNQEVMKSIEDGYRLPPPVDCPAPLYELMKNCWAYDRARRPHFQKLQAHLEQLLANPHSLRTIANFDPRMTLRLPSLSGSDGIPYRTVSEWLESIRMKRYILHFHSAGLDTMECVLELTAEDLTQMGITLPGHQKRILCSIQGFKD
Observed: enzyme activity
Mode: inhibitor
Tested at: 0.5 µM
Relative to: control
Compound | remaining activity
Nc1[nH]nc2nc3ccccc3nc12 | 100%
O=c1c2ccccc2[nH]c(=S)n1CCN1CCC(=C(c2ccc(F)cc2)c2ccc(F)cc2)CC1 | 107%
CCOC(=O)c1c(C)[nH]c(/C=C2\C(=O)Nc3ccccc32)c1C | 90.8%
COc1cc2nccc(Oc3ccc(NC(=S)NC(=O)c4ccccc4C)cc3)c2cc1OC | 83%
COc1cc2ncnc(Nc3ccc(F)c(Cl)c3)c2cc1OCCCN1CCOCC1 | 87.4%
O=S(=O)(c1cccc2cnccc12)N1CCCNCC1 | 79.9%
Cn1sc(=O)n(Cc2ccccc2)c1=O | 106%
CNC(=O)c1cc(Oc2ccc(NC(=O)Nc3ccc(Cl)c(C(F)(F)F)c3)cc2)ccn1 | 87.7%
OCC(O)CCON=C1C(c2c(O)[nH]c3ccccc23)=Nc2ccccc21 (stereo not drawn) | 82.2%
Nc1ccc2ncnc(NCCc3ccc(Oc4ccccc4)cc3)c2c1 | 86.6%
NCCNc1ncc(C(N)=O)c(Nc2cccc(C(F)(F)F)c2)n1 | 100%
COc1cc2ncnc(Nc3ccc(Oc4ccccc4)cc3)c2cc1OC | 95.6%
O=C(O)c1ccc2c3c1cccc3c(=O)n1c3ccccc3nc21 | 95.3%
Cc1cccc(-c2[nH]c(C(C)(C)C)nc2-c2ccc3c(c2)OCO3)n1 | 124%
O=C(CCCc1ccc(-c2ccccc2F)cc1)Nc1ccc(O)cc1 | 117%
CO[C@H]1C[C@@H]2CC[C@@H](C)[C@@](O)(O2)C(=O)C(=O)N2CCCC[C@H]2C(=O)O[C@H]([C@H](C)C[C@@H]2CC[C@@H](O)[C@H](OC)C2)CC(=O)[C@H](C)/C=C(\C)[C@@H](O)[C@@H](OC)C(=O)[C@H](C)C[C@H](C)/C=C/C=C/C=C/1C | 99.5%

Set 4
Target: Interferon regulatory factor 3, full length, phosphomimetic (IRF3, Homo sapiens, UniProt Q14653, residues 1-427, S386D/S396D/S398D/S402D/T404D/S405D)
UniProt Q14653, sequence (whole entry, unmodified, looked up): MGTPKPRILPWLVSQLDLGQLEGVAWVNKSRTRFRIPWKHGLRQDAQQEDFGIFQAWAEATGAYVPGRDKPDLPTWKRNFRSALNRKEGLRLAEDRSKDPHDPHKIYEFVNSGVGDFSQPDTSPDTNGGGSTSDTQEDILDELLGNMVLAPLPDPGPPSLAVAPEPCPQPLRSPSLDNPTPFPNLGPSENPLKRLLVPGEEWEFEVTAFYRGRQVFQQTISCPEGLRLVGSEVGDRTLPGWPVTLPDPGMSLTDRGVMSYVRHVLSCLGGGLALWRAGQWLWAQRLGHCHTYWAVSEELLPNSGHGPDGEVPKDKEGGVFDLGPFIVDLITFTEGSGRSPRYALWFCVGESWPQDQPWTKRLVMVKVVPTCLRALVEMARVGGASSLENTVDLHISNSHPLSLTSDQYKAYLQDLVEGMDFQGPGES
Method: protein-binding microarray
Molecule type: double-stranded DNA, one strand shown
Sample: in vitro
Tested at: 2540 nM top
Notes: 60-bp whole probe
With: salmon DNA 0.4 mg/ml
Relative to: random background probes
Direction: higher = stronger binding
Constant ends, left off below: GCCTAGCAC … GTCTTGATTCGCTTGACGCTGCTG
Oligonucleotide | fitted relative affinity [z-score]
GACGATCTCAGTATCGAGAAGTGCTAG | 0.829
CACTATTTAAGACCTATGCACGTGCTA | 0.459
TTAGGACTGCGTTTCCTTTAGTGCTAG | 1.73
TCCTCTTTCTCTGCTACCCTCGTGCTA | 2.87
TCAGTTCTTATCCTTCCCACTGTGCTA | 1.51
GACGATTCCGGGTTTCGAGACGTGCTA | 1.3
GACGGACTGAGTATCGAGACGTGCTAG | -0.307
TTAGGTATCCTTCCCCTTTAGTGCTAG | 3.21
